{"data": "Measured values pooled from the literature", "note": "Parts stem from different laboratories: compare values within a part only. Substitutions count along the parent as printed.", "sequence of UniProt Q9Y2U5 (whole entry, looked up)": "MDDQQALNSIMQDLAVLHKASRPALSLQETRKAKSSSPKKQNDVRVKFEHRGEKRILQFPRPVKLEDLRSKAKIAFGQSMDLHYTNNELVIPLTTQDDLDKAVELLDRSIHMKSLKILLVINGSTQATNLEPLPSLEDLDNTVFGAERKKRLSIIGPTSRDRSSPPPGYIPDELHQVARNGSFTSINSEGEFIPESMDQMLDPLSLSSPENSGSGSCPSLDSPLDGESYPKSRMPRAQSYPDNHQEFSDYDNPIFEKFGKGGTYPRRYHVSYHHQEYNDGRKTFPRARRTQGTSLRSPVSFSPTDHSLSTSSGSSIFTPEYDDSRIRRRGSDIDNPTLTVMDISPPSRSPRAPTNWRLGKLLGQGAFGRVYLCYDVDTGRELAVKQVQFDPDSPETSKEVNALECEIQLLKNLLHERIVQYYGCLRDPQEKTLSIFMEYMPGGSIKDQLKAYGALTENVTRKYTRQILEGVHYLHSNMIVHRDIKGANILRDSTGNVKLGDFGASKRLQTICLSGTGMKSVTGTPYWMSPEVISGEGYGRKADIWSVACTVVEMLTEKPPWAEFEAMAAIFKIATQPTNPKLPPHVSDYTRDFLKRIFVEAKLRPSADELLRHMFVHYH"}
{"data": "Series 1", "target": "Cellular tumor antigen p53, full length (TP53, Homo sapiens, UniProt P04637, residues 1-393)", "method": "protein-binding microarray", "form": "hairpin DNA", "matrix": "in vitro", "tested at": "not given", "notes": "whole hairpin DNA, median over replicate spots", "reference": "not given", "reading": "higher = stronger binding"}
{"Strand": "CCACACGTCGTGGCATGCCTTCCTAGGCATGCCACGACGTGTGGACACTC (5mC at 9 35)", "median fluorescence": "7640 a.u."}
{"Strand": "CGGACGTGCCCGGGCATGTCTCCTGACATGCCCGGGCACGTCCGACACTC (5mC at 5)", "median fluorescence": "15100 a.u."}
{"Strand": "CGGAGATGCCCGGGCATGTCTCCTGACATGCCCGGGCATCTCCGACACTC", "median fluorescence": "13200 a.u."}
{"Strand": "CCACACGTGGTGCGATGCCTTCCTAGGCATCGCACCACGTGTGGACACTC (5mC at 31)", "median fluorescence": "5000 a.u."}
{"Strand": "CCACCGGTGGTGGCATGCCTTCCTAGGCATGCCACCACCGGTGGACACTC (5mC at 5 39)", "median fluorescence": "6380 a.u."}
{"Strand": "CGGACATGCTCGGGCATGTCTCCTGACATGCCCGAGCATGTCCGACACTC", "median fluorescence": "16300 a.u."}
{"Strand": "CGGACATGCCCGGGCATGTCTCCTGACATGCCCGGGCATGTCCGACACTC (5mC at 15)", "median fluorescence": "23400 a.u."}
{"Strand": "CCACACGTGTTGGCATGCCTTCCTAGGCATGCCAACACGTGTGGACACTC", "median fluorescence": "7830 a.u."}
{"data": "Series 2", "target": "Protein max, full length (MAX, Homo sapiens, UniProt P61244-2, residues 1-151)", "method": "protein-binding microarray", "form": "double-stranded DNA, one strand shown", "matrix": "in vitro", "tested at": "not given", "notes": "k-mer, scored over probes, only values ≥0.25", "reading": "higher = stronger binding"}
{"Strand": "CACGCACA", "E-score": 0.352}
{"Strand": "CGCTCACA", "E-score": 0.25}
{"Strand": "CAATGTGG", "E-score": 0.362}
{"Strand": "ACATGCGC", "E-score": 0.442}
{"Strand": "ACATATGG", "E-score": 0.329}
{"Strand": "CGTGGTTA", "E-score": 0.333}
{"Strand": "CTTCACGC", "E-score": 0.29}
{"Strand": "CACCCACG", "E-score": 0.423}
{"data": "Series 3", "target": "ABI1, truncated, D143A, DHFR fusion (Arabidopsis thaliana, UniProt P49597)", "method": "DHFR PCA, dose-response", "matrix": "yeast", "notes": "Hill fit, mean, not affinity", "together with": "(+)-ABA, dose series", "reading": "lower = more sensitive", "parent": "PYL1, truncated, DHFR fusion (Arabidopsis thaliana, UniProt Q8VZS8); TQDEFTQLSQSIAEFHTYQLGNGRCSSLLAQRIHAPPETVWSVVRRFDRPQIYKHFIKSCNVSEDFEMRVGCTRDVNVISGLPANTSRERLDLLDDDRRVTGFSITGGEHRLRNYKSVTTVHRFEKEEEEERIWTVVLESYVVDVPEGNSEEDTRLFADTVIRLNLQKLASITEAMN"}
{"Substitution": "L28M", "ABA EC50": "1.59 µM"}
{"Substitution": "H34P", "ABA EC50": "12.9 µM"}
{"Substitution": "T106F", "ABA EC50": "1.67 µM"}
{"Substitution": "L28T", "ABA EC50": "14.6 µM"}
{"Substitution": "I172A", "ABA EC50": "19.8 µM"}
{"Substitution": "T73I", "ABA EC50": "1.49 µM"}
{"Substitution": "I172Y", "ABA EC50": "2.97 µM"}
{"Substitution": "S59G", "ABA EC50": "5.78 µM"}
{"data": "Further values, each from its own experiment"}
{"SMILES": "CC(C)c1nn(-c2c(Cl)cccc2Cl)c2nc(Cc3ccc(OCCO)cc3)[nH]c(=O)c12", "target": "Mitogen-activated protein kinase kinase kinase 2 (MAP3K2, Homo sapiens, UniProt Q9Y2U5)", "test": "enzyme activity, inhibitor", "conditions": "0.5 µM", "how to read": "reference: control", "quantity": "remaining activity", "result": "94.7%"}
{"note": "For quick reference, copied from above (series 1):"}
{"Strand": "CGGAGATGCCCGGGCATGTCTCCTGACATGCCCGGGCATCTCCGACACTC", "median fluorescence": "13200 a.u."}
{"Strand": "CCACACGTGGTGCGATGCCTTCCTAGGCATCGCACCACGTGTGGACACTC (5mC at 31)", "median fluorescence": "5000 a.u."}
{"Strand": "CCACCGGTGGTGGCATGCCTTCCTAGGCATGCCACCACCGGTGGACACTC (5mC at 5 39)", "median fluorescence": "6380 a.u."}
{"Strand": "CGGACATGCTCGGGCATGTCTCCTGACATGCCCGAGCATGTCCGACACTC", "median fluorescence": "16300 a.u."}
